Results of several laboratories.
Numbered parts are unrelated; each lists some results of a single study. Positions count from the first letter of the parent shown.

Set 1
Target: Interferon regulatory factor 7, full length, phosphomimetic (IRF7, Homo sapiens, UniProt Q92985, residues 1-503, S101K/S471D/S472D/S475D/S476D/S477D/S483D/S484D/S487D)
UniProt Q92985, sequence (whole entry, unmodified, looked up): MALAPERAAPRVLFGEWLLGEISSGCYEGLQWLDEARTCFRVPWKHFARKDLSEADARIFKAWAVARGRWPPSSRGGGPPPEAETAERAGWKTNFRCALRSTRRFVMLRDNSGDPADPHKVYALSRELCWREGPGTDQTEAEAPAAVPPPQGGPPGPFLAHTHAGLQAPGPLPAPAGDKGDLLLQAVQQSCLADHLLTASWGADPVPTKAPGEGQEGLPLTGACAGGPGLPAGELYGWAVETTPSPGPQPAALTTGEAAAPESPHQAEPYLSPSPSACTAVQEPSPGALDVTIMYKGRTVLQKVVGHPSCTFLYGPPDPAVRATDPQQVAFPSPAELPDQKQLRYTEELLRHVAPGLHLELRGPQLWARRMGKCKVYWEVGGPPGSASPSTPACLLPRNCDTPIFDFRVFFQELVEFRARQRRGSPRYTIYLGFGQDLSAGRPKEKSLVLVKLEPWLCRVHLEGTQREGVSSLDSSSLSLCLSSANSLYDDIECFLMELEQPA
Method: protein-binding microarray
Form: double-stranded DNA, one strand shown
Sample: in vitro
Concentration: 250 nM
Notes: 60-bp whole probe
Added: salmon DNA 0.4 mg/ml
Baseline: random background probes
Direction: higher = stronger binding
All sequences stand within: GCCTAGCAC … GTGCTAGGTCTTGATTCGCTTGACGCTGCTG
| Oligonucleotide | log fluorescence [z-score] |
| --- | --- |
| GACGAGCTCAGTATCGAGAC | -0.132 |
| GACGTACTGGGTATCGGGAC | -0.169 |
| GACGGTATCGGTATCGGGAC | 1.38 |
| TTAGAGCTGAGACTGGATTA | -0.816 |
| GACGGTCTCCTACTGCTAAC | -0.202 |
| GTGTACATCTCTCTTAAATA | 0.225 |
| TTAGCTATCCTACTGCTTTA | -0.213 |
| TTTATTTATTTATTTATTTA | 0.984 |

Set 2
Target: CREB5, bZIP domain (human)
Method: DHFR protein complementation
Sample: yeast
Notes: single substitutions, most at no-binding floor
Baseline: wild-type JUN-FOS pair
Direction: higher = stronger binding
Starting sequence: JUN, bZIP domain (human); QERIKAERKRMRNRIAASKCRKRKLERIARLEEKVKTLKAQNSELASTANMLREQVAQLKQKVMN; partner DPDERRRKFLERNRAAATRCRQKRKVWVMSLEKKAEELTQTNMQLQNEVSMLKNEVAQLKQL
| Variant | binding fitness |
| --- | --- |
| A46P | -1.28 natural log |
| L45N | -1.35 natural log |
| K39N | -0.439 natural log |
| I28T | -0.496 natural log |
| L31G | -1.29 natural log |
| A49H | -1.12 natural log |
| L38Q | -1.39 natural log |
| A46W | -0.647 natural log |

Set 3
Target: Sal-like protein 4, full length isoform A (SALL4, Homo sapiens, UniProt Q9UJQ4, residues 1-1053)
UniProt Q9UJQ4, sequence (whole entry, looked up): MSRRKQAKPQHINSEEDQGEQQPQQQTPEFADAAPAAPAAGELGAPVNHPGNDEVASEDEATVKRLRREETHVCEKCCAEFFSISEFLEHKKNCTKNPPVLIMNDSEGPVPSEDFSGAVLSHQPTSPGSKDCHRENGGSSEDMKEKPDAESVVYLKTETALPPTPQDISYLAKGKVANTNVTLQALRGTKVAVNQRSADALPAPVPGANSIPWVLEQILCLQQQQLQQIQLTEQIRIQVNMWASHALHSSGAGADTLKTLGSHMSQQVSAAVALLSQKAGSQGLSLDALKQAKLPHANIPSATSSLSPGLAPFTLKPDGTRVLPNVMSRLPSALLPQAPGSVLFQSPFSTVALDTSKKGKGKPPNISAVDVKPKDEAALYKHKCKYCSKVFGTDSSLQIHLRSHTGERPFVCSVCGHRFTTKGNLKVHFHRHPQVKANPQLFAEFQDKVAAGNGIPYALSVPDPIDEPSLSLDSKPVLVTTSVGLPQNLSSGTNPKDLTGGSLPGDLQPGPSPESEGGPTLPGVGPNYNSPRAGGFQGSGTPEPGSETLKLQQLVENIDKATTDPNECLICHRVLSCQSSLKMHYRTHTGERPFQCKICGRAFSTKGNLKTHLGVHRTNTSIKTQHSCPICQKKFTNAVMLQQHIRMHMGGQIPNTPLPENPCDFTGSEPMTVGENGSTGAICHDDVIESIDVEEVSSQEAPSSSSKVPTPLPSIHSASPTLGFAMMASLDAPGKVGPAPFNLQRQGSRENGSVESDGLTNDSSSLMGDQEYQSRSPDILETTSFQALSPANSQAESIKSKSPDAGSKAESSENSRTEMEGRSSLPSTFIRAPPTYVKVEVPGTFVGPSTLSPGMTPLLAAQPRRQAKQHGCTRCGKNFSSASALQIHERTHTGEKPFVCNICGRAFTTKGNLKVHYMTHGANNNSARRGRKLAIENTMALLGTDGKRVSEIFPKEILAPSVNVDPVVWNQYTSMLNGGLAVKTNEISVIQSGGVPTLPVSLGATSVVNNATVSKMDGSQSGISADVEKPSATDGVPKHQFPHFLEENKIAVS
Method: universal PBM
Form: double-stranded DNA, one strand shown
Sample: in vitro
Concentration: 600 nM
Notes: 8-mer, flanks averaged, mean of replicates
Direction: higher = stronger binding
| Oligonucleotide | E-score |
| --- | --- |
| CGAAGCAG | -0.126 |
| ATAGAGCG | 0.0387 |
| TATCTGAA | 0.188 |
| AAACCAGC | -0.0712 |
| ACTAGACG | 0.18 |
| ATAACCCG | -0.0468 |
| TGACGTCA | 0.138 |
| AGGGAACC | -0.212 |

Mixed results
Starting sequence: PafA, mature enzyme, eGFP fusion (Elizabethkingia meningoseptica, UniProt Q9KJX5); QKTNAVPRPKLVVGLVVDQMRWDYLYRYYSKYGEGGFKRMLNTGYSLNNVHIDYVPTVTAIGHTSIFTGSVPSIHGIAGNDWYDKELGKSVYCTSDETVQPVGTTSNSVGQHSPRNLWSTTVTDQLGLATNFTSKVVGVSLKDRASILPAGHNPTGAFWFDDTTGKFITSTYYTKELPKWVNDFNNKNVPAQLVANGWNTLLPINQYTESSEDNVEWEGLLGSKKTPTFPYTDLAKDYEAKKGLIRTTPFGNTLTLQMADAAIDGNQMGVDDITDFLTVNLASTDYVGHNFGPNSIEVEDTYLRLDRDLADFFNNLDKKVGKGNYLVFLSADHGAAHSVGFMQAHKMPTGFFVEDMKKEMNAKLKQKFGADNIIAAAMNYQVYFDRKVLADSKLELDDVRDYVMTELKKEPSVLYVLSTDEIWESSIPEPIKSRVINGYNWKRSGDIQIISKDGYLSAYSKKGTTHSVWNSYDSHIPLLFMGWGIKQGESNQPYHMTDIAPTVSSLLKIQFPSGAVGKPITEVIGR
| Variant | target | assay | test system | conditions | scale | endpoint | result |
| --- | --- | --- | --- | --- | --- | --- | --- |
| A150G | tungstate, free oxyanion | microfluidic competitive inhibition | in vitro, cell-free expressed | not given, derived from inhibition constants, unchanged parent 2230 nM | lower = stronger binding | oxyanion analog dissociation constant | 2.66 µM |

For quick reference, copied from above (set 2):
| Variant | binding fitness |
| --- | --- |
| A49H | -1.12 natural log |
| A46P | -1.28 natural log |
| K39N | -0.439 natural log |
